Experimental data pooled from the literature.
Each line is one published result; not all experiments were run side by side. Numbers after ± are the reported error. In brackets after ≈: the same amount, converted by molar mass.
UniProt Q9UQD0, sequence (whole entry, looked up): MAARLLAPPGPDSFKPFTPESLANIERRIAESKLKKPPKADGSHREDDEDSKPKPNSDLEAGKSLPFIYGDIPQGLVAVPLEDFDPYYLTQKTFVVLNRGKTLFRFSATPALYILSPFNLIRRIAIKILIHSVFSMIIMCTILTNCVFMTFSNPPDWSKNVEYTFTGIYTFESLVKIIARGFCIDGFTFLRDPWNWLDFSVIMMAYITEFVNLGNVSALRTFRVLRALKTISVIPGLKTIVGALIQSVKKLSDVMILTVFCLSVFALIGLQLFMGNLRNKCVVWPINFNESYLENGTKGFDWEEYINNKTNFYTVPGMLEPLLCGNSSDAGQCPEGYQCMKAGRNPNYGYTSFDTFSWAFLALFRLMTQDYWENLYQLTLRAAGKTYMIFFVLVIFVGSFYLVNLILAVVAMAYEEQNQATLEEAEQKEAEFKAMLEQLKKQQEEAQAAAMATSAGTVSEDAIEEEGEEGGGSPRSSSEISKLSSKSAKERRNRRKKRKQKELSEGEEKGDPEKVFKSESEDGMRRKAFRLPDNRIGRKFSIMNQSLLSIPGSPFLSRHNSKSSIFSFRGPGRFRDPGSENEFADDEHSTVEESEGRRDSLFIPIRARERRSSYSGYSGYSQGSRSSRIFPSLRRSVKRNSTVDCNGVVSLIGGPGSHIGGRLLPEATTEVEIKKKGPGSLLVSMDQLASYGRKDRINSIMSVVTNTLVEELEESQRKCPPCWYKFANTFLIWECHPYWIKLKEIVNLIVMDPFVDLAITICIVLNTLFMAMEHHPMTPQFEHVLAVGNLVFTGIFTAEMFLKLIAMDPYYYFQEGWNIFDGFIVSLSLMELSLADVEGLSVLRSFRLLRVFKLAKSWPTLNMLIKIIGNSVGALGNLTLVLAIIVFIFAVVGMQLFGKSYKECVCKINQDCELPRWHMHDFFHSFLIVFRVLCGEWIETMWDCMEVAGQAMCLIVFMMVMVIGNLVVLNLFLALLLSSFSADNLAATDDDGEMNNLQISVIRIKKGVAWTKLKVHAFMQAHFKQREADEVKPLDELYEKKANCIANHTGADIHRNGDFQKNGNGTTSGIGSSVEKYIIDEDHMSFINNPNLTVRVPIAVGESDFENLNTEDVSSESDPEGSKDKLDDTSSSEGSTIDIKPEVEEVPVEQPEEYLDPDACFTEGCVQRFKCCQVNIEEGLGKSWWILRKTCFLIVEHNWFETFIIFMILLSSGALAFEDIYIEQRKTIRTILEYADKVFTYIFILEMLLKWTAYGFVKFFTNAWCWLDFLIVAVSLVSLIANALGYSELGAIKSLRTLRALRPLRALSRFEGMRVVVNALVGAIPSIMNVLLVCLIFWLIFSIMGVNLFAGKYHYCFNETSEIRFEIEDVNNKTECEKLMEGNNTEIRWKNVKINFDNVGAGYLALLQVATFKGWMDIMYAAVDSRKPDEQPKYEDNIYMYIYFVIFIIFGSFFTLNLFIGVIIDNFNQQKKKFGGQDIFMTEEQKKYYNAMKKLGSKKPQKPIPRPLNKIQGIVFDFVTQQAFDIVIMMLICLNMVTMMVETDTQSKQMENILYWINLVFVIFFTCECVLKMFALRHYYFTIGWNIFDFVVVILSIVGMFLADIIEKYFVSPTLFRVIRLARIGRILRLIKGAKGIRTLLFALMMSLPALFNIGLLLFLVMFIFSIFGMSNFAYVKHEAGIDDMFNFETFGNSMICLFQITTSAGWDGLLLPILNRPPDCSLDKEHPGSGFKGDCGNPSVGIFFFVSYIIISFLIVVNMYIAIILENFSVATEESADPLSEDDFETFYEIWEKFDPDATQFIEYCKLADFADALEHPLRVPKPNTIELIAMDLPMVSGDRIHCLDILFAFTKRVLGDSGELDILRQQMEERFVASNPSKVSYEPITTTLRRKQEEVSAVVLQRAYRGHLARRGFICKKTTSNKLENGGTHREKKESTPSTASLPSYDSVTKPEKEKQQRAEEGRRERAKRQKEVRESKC

CC(C)C[C@H](NC(=O)[C@H](CC(=O)O)NC(=O)[C@H](CCC(=O)O)NC(=O)[C@H](C)NC(=O)[C@H](CCC(=O)O)NC(=O)[C@H](Cc1c[nH]cn1)NC(=O)[C@H](CC(N)=O)NC(=O)[C@H](Cc1ccccc1)NC(=O)[C@H](Cc1ccccc1)NC(=O)[C@H](CC(=O)O)NC(=O)[C@H](CC(C)C)NC(=O)[C@H](Cc1ccccc1)NC(=O)[C@@H](N)[C@@H](C)O)C(=O)N[C@@H](Cc1ccccc1)C(=O)N[C@@H](Cc1ccc(O)cc1)C(=O)N[C@@H](CSCc1ccc(S(=O)(=O)F)cc1)C(=O)O
inhibition (HEK293T-ACE2; pseudovirus infection; concentration not given): 100%

Cc1cc(/C=C/C#N)cc(C)c1Nc1nc(Nc2ccc(C#N)cc2)ncc1N
EC50 (HIV-1; viral replication, single-round infection; RT mutant P236L): 0.2 ± 0.06 nM

CCCCCCCCCCCCCCCC(=O)N[C@@H](CCC(=O)NCCOCCOCCC(=O)NCCOCCOCCC(=O)NCCCC[C@H](NC(=O)[C@H](CC(=O)O)NC(=O)[C@H](CC(C)C)NC(=O)[C@H](Cc1ccc(O)cc1)NC(=O)[C@H](CCCCN)NC(=O)[C@H](CO)NC(=O)[C@H](Cc1ccc(O)cc1)NC(=O)[C@H](CC(=O)O)NC(=O)[C@H](CO)NC(=O)[C@@H](NC(=O)[C@H](Cc1ccccc1)NC(=O)[C@@H](NC(=O)CNC(=O)[C@H](CCC(N)=O)NC(=O)[C@@H](CO)NC(=O)[C@@H](N)Cc1c[nH]cn1)[C@@H](C)O)[C@@H](C)O)C(=O)N[C@@H](CCCNC(=N)N)C(=O)N[C@@H](CCCNC(=N)N)C(=O)N[C@@H](C)C(=O)N[C@@H](CCC(N)=O)C(=O)N[C@@H](CC(=O)O)C(=O)N[C@@H](Cc1ccccc1)C(=O)N[C@H](C(=O)N[C@@H](CCC(N)=O)C(=O)N[C@@H](Cc1c[nH]c2ccccc12)C(=O)N[C@@H](CC(C)C)C(=O)N[C@@H](CC(C)C)C(=O)N[C@@H](CC(N)=O)C(=O)N[C@H](C(=O)NCC(=O)NCC(=O)N1CCC[C@H]1C(=O)N[C@@H](CO)C(=O)N[C@@H](CO)C(=O)NCC(=O)N[C@@H](C)C(=O)N1CCC[C@H]1C(=O)N1CCC[C@H]1C(=O)N1CCC[C@H]1C(=O)N[C@@H](CO)C(N)=O)[C@@H](C)O)C(C)C)C(=O)O
serum enzyme activity (item: CK; Sprague-Dawley rat, female; subcutaneous, 500 µg/kg once daily, 14 days): 525 ± 343 U/L

CC(=O)O[C@@H]1[C@@H](O)[C@H]2O[C@@H]3C=C(C)C(=O)[C@@H](O)[C@]3(CO)[C@]1(C)[C@]21CO1
IC50 (HK-2; cell growth or viability): 350 nM

CC[C@H](C)[C@H](NC(=O)[C@H](CCCCN)NC(=O)[C@H](CCCCN)NC(=O)[C@H](CC(C)C)NC(=O)[C@H](Cc1c[nH]c2ccccc12)NC(=O)CN)C(=O)NCC(=O)N[C@@H](CCCCN)C(=O)N[C@@H](CCCCN)C(=O)N[C@H](C(=O)N[C@@H](CCC(=O)O)C(=O)N[C@@H](CCCNC(=N)N)C(=O)N[C@H](C(=O)NCC(=O)N[C@@H](CCC(N)=O)C(=O)N[C@@H](Cc1c[nH]cn1)C(=O)N[C@H](C(=O)N[C@@H](CCCNC(=N)N)C(=O)N[C@@H](CC(=O)O)C(=O)N[C@@H](C)C(=O)N[C@H](C(=O)N[C@H](C(=O)N[C@@H](CCC(N)=O)C(=O)N[C@H](C(=O)N[C@H](C(=O)NCC(=O)N[C@H](C(=O)N[C@@H](C)C(=O)N[C@@H](CCC(N)=O)C(=O)N[C@@H](CCC(N)=O)C(=O)N[C@@H](C)C(=O)N[C@@H](C)C(=O)N[C@@H](CC(N)=O)C(=O)N[C@H](C(=O)N[C@@H](C)C(=O)N[C@@H](C)C(=O)N[C@H](C(=O)N[C@@H](CC(C)C)C(=O)N[C@@H](CCCCN)C(N)=O)[C@@H](C)O)C(C)C)C(C)C)[C@@H](C)CC)[C@@H](C)O)[C@@H](C)CC)[C@@H](C)O)[C@@H](C)O)C(C)C)[C@@H](C)CC
MIC (Klebsiella pneumoniae; broth microdilution; RKI 19/16, CAMHB with 10% mouse serum; 150 mM NaCl): 4 µg/mL (≈ 0.952 µM)

O=C(NNC(=S)Nc1ccc(C(F)(F)F)cc1)c1ccccn1
EC50 (Huh-7; pseudovirus entry; added: MERS-CoV spike pseudovirus): 910 nM

CSCC[C@@H]1NC(=O)CNC(=O)[C@H](CCC(=O)O)NC(=O)[C@@H]2CSSC[C@H](NC(=O)[C@@H](N)Cc3ccc(O)cc3)C(=O)N[C@@H](CCC(N)=O)C(=O)N[C@@H](CCCCN)C(=O)N[C@@H](Cc3c[nH]c4ccccc34)C(=O)N[C@@H](CCSC)C(=O)N[C@@H](Cc3c[nH]c4ccccc34)C(=O)N[C@@H]([C@@H](C)O)C(=O)N[C@H]3CSSC[C@H](NC(=O)[C@H](C(C)C)NC1=O)C(=O)N[C@@H](CCCNC(=N)N)C(=O)N[C@@H](CC(C)C)C(=O)N[C@@H](Cc1c[nH]c4ccccc14)C(=O)N[C@H](C(=O)N[C@@H](CCCCN)C(=O)N[C@@H](CCCCN)C(=O)N[C@@H](CCCCN)C(=O)N[C@@H](CC(C)C)C(=O)N[C@@H](Cc1c[nH]c4ccccc14)C(=O)O)CSSC[C@H](NC(=O)[C@H](CCCCN)NC(=O)[C@H](CCCNC(=N)N)NC(=O)[C@H](CCC(=O)O)NC(=O)[C@H](CO)NC(=O)[C@H](CC(=O)O)NC3=O)C(=O)N2
inhibition (ND7/23; peak TTX-sensitive sodium current; 0.001 µM, 2 peak): 6 ± 7%

CC(C)C[C@@H]1NC(=O)[C@H](CCCNC(=N)N)NC(=O)[C@@H]2CCCN2C(=O)[C@@H]2CSSC[C@H](NC(=O)CNC(=O)[C@@H]3CCCN3C(=O)[C@H](CCCCN)NC(=O)[C@H](CC(=O)O)NC(=O)[C@@H](NC(=O)CN)C(C)C)C(=O)N[C@@H](CCCNC(=N)N)C(=O)N[C@@H](Cc3ccc(O)cc3)C(=O)N[C@@H](CC(C)C)C(=O)N[C@@H](Cc3ccccc3)C(=O)NCC(=O)NCC(=O)N[C@H]3CSSC[C@H](NC(=O)CNC1=O)C(=O)N[C@@H](CCCCN)C(=O)NCC(=O)N[C@@H](CCCCN)C(=O)NCC(=O)N[C@@H](Cc1c[nH]cn1)C(=O)N[C@@H](CC(=O)O)C(=O)N[C@@H](Cc1ccc(O)cc1)C(=O)N[C@H](C(=O)N[C@@H](C)C(=O)N[C@@H](Cc1c[nH]c4ccccc14)C(=O)N[C@@H](CC(=O)O)C(=O)NCC(=O)N[C@H](C(=O)N[C@@H](Cc1ccccc1)C(=O)N[C@@H](CO)C(=O)N[C@@H](CC(=O)O)C(=O)O)[C@@H](C)O)CSSC[C@H](NC(=O)[C@H](CC(=O)O)NC(=O)[C@H](CC(=O)O)NC(=O)[C@H](CC(=O)O)NC(=O)[C@H](CO)NC(=O)[C@H](CCCCN)NC3=O)C(=O)N2
inactivation time constant ratio (Sodium channel protein type 8 subunit alpha (SCN8A, Homo sapiens, UniProt Q9UQD0); sodium current, automated patch clamp; HEK293; 1 µM, 50 ms depolarizing pulse; relative to: compound over control): 3.58 ± 0.54

CC1COC2(OC3CC4C5CC(OC6OC(C)C(O)C(OC7OC(C)C(O)C(O)C7O)C6O)C6CC(O)CCC6(C)C5CCC4(C)C3C2C)C(O)C1 (stereo not drawn)
inhibition (HEK293T; entry of SARS-CoV-2 spike pseudotyped lentivirus; 10 µM): 50 to 90%

COc1ccccc1CNC(=O)CSc1c[nH]c2ccccc12
reporter expression (HEK293T; Gaussia luciferase expression; up to 10 µM, 24 h, without RdRp): no effect

CC(=O)OC[C@]12[C@H](O)C(=O)C(C)=C[C@H]1O[C@@H]1[C@H](O)C[C@@]2(C)[C@]12CO2
IC50 (HK-2; cell growth or viability, SRB; 24 h): 3770 nM

COc1cccc(NC(=S)NNC(=O)c2ccccn2)n1
EC50 (Huh-7; pseudovirus entry; added: MERS-CoV spike pseudovirus): 190 nM

O=C(CSc1c[nH]c2ccccc12)NCc1ccc(Cl)c(Cl)c1
reporter expression (HEK293T; Gaussia luciferase expression; up to 10 µM, 24 h, without RdRp): no effect

C[C@@H]1Cc2ccc(C(=O)N[C@@H](Cc3ccccc3)C(=O)O)c(O)c2C(=O)O1
IC50 (HK-2; cell growth or viability, SRB; 24 h): 37900 nM

CC[C@H](C)[C@@H]([C@@H](CC(=O)N1CCC[C@H]1[C@H](OC)[C@@H](C)C(=O)N[C@H](C)[C@@H](O)c1ccccc1)OC)N(C)C(=O)[C@@H](NC(=O)[C@H](C(C)C)N(C)C(=O)OCc1ccc(NC(=O)[C@H](CCCNC(N)=O)NC(=O)[C@@H](NC(=O)CCCC(=O)NCCC(=O)N(C)CC(=O)N(C)CC(=O)N(C)CC(=O)N(C)CC(=O)N(C)CC(=O)N(C)CC(=O)N(C)CC(=O)N(C)CC(=O)N(C)CC(=O)N(C)CC(=O)N[C@H]2CSCCC(=O)N3CN4CN(C3)C(=O)CCSC[C@H](NC(=O)[C@@H](CC(=O)O)NC(=O)[C@H](Cc3cccc5ccccc35)NC(=O)[C@@H]3CCCN3C2=O)C(=O)N[C@@H](CCSC)C(=O)N[C@@H](CCCCNC(=N)N)C(=O)N[C@@H](CC(=O)O)C(=O)N[C@@H](Cc2c[nH]c3ccccc23)C(=O)N[C@@H](CO)C(=O)N[C@@H]([C@@H](C)O)C(=O)N2CCC[C@H]2C(=O)N2C[C@H](O)C[C@H]2C(=O)N[C@@H](Cc2c[nH]c3ccccc23)C(=O)N[C@H](C(N)=O)CSCCC4=O)C(C)C)cc1)C(C)C
t_half (human plasma; 2 µM, pH 7.4): > 3470 min

Repeated from above:
O=C(NNC(=S)Nc1ccc(C(F)(F)F)cc1)c1ccccn1
EC50 (Huh-7; pseudovirus entry; added: MERS-CoV spike pseudovirus): 910 nM
